# Experimental data pooled from the literature.
# Numbered parts are unrelated; each lists some results of a single study. Values joined by “and” are separate records of one study, mostly repeats; a detail may differ.
# Sequence of UniProt Q9H2X6 (whole entry, looked up): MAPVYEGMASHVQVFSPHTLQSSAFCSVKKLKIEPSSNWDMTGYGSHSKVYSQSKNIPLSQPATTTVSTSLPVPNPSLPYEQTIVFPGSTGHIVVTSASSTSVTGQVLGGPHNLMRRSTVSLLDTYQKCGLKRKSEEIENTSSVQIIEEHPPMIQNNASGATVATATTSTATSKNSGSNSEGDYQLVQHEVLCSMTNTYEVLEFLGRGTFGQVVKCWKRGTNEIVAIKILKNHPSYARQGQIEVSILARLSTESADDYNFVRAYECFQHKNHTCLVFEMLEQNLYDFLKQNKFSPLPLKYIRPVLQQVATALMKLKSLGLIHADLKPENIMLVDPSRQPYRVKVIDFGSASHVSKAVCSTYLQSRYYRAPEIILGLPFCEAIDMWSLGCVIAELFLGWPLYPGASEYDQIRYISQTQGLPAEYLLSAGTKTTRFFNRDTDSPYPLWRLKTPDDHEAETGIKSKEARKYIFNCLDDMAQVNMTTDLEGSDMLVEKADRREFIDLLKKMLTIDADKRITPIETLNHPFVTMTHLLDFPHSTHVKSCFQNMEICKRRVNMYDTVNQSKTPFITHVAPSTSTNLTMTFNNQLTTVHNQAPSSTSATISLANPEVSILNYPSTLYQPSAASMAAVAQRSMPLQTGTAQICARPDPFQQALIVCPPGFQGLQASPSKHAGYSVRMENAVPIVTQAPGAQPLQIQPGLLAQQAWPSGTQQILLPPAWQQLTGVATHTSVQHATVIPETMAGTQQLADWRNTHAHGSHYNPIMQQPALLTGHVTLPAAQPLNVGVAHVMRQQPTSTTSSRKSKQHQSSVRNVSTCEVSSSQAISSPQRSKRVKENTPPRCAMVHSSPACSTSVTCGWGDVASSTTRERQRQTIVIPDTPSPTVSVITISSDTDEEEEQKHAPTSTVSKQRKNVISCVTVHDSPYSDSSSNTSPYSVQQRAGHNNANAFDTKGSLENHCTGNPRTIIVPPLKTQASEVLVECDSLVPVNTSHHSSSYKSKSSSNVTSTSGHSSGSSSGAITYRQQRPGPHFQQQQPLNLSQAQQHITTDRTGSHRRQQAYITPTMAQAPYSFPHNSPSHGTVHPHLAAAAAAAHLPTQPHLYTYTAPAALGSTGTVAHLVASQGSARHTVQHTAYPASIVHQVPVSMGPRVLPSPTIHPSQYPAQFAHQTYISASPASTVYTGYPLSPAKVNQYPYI
# Sequence of UniProt Q13464 (whole entry, looked up): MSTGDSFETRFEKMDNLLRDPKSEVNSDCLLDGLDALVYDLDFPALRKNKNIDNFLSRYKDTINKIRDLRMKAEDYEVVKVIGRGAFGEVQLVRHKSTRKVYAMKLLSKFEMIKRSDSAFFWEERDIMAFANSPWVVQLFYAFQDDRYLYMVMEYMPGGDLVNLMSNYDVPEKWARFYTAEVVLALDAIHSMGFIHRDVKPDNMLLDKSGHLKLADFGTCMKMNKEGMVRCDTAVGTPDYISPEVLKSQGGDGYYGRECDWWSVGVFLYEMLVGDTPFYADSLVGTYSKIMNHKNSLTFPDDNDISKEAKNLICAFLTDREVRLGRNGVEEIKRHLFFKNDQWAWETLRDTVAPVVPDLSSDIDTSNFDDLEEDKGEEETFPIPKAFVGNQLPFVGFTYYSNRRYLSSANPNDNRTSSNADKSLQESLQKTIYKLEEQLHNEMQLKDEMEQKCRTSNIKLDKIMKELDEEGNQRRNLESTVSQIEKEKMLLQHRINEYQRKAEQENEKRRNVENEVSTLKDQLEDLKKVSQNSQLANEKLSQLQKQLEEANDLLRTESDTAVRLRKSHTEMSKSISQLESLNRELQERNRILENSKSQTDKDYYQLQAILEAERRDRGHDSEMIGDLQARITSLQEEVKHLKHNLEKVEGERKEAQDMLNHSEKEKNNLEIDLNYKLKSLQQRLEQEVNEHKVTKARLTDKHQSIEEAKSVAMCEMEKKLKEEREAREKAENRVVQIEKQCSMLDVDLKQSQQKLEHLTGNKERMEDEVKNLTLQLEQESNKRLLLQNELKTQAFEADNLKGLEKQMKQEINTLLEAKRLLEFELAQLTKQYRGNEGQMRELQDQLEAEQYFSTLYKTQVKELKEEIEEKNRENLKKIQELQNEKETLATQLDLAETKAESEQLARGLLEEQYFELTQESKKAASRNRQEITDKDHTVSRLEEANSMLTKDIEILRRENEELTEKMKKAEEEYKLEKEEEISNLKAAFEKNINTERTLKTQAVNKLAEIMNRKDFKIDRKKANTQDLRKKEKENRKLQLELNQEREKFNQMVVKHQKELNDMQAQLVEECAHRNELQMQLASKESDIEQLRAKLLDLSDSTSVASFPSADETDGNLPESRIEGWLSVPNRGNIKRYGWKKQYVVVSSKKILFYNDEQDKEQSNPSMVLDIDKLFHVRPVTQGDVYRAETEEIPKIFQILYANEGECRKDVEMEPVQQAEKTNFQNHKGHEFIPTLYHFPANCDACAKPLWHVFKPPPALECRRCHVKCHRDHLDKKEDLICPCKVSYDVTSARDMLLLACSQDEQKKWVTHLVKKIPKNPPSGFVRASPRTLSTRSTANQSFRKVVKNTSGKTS
# Sequence of UniProt P42336 (whole entry, looked up): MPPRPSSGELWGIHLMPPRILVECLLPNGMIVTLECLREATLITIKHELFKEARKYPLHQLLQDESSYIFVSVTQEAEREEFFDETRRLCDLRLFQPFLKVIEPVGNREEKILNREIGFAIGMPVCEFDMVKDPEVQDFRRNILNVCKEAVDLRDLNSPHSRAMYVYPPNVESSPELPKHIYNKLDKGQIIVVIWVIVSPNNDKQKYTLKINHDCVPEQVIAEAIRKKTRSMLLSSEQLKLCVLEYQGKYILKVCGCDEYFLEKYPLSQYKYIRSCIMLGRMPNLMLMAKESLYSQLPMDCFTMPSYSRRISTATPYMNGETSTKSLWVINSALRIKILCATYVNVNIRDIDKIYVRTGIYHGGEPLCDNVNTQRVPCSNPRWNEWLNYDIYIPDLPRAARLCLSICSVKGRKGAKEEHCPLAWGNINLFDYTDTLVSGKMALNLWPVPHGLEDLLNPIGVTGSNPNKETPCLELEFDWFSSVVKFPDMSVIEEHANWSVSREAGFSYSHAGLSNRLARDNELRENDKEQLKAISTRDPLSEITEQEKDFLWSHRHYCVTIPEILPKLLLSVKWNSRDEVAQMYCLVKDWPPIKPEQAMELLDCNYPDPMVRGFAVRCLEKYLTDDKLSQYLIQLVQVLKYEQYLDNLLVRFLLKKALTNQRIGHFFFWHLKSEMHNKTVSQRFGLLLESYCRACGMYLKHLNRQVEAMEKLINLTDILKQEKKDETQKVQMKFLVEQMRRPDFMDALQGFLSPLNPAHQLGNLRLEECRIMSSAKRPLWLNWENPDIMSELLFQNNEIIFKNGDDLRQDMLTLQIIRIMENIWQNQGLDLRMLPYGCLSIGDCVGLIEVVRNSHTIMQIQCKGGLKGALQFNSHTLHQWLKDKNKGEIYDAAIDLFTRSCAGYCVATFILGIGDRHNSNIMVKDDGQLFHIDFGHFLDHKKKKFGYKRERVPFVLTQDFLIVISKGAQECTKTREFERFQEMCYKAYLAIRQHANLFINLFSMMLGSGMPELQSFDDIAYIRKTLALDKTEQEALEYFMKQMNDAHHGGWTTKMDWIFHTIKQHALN

# Series 1
# SMILES: CO[C@@H](C)c1c(Nc2ccc([C@H](N(C)C(=O)C3CCS(=O)(=O)CC3)C(F)(F)F)cc2)cnc2cc(Cl)nn12
# Method: competition with immobilised ligand
# Concentration: 1 µM
target,assay,remaining binding [%]
"ROCK1 (Homo sapiens, UniProt Q13464)",cell-free assay,100
"HIPK2 (Homo sapiens, UniProt Q9H2X6)",cell-free assay,100
"MUSK (Homo sapiens, UniProt O15146)",cell-free assay,83
"RIPK4 (Homo sapiens, UniProt P57078)",cell-free assay,76
"NEK2 (Homo sapiens, UniProt P51955)",cell-free assay,100
"HIPK3 (Homo sapiens, UniProt Q9H422)",cell-free assay,100
"FLT3 (Homo sapiens, UniProt P36888, N841I)",binding,23
"MAPK7 (Homo sapiens, UniProt Q13164)",cell-free assay,92
"IRAK3 (Homo sapiens, UniProt Q9Y616)",cell-free assay,68
"CDK5 (Homo sapiens, UniProt Q00535)",cell-free assay,96
"PIP5K1A (Homo sapiens, UniProt Q99755)",cell-free assay,100
"EGFR (Homo sapiens, UniProt P00533, del747-750/T751S)",cell-free assay,100
"Macrophage colony-stimulating factor 1 receptor, autoinhibited (CSF1R, Homo sapiens, UniProt P07333)",cell-free assay,95
"CSNK1A1L (Homo sapiens, UniProt Q8N752)",cell-free assay,65
"MAK (Homo sapiens, UniProt P20794)",cell-free assay,100
"PIK3CA (Homo sapiens, UniProt P42336)",cell-free assay,94

# Series 2
# Compound: O=C(Nc1cnn(-c2csc(C(=O)NC3COC3)c2)c1)Nc1c(F)cccc1Cl
# Effect on: enzyme activity
# Concentration: 5 µM
target,assay,how to read,remaining activity [%]
"NEK9 (Homo sapiens, UniProt Q8TD19)",,reference: untreated control,85.8
"DDR1 (Homo sapiens, UniProt Q08345)",,reference: untreated control,84.3
"TEK (Homo sapiens, UniProt Q02763)",,reference: untreated control,104
"MAP3K6 (Homo sapiens, UniProt O95382)",,reference: untreated control,90.7
"PAK5 (Homo sapiens, UniProt Q9P286)",,reference: untreated control,92.8
"TYRO3 (Homo sapiens, UniProt Q06418)",,reference: untreated control,65.6
"YES1 (Homo sapiens, UniProt P07947)",,reference: untreated control,90.5
"PRKACB (Homo sapiens, UniProt P22694)",inhibitor,,98.3

# Series 3
# SMILES: CC(C)(C(=O)O)[C@H](NC(=O)Cc1cccc(I)c1)c1ccc2oc(=O)[nH]c2c1
# Method: Incucyte 3D growth
# Concentration: 30 µM
# Direction: higher = more growth
cell line,setting,spheroid area
A375,516.52 h,1.44e+08 a.u. and 1.54e+08 a.u. and 1.42e+08 a.u. and 1.74e+08 a.u. and 1.38e+08 a.u. and 1.48e+08 a.u.
A375,78 h,4.31e+07 a.u. and 4.22e+07 a.u. and 5.19e+07 a.u. and 6.15e+07 a.u. and 5.44e+07 a.u. and 5.82e+07 a.u.
A375,240 h,1.38e+08 a.u. and 1.18e+08 a.u. and 1.32e+08 a.u. and 1.6e+08 a.u. and 1.33e+08 a.u. and 1.36e+08 a.u.
IPC-298,138 h,2.49e+07 a.u. and 2.37e+07 a.u. and 2.59e+07 a.u. and 1.96e+07 a.u. and 2.82e+07 a.u. and 3.03e+07 a.u.
A375,474.52 h,1.51e+08 a.u. and 1.49e+08 a.u. and 1.62e+08 a.u. and 1.63e+08 a.u. and 1.42e+08 a.u. and 1.77e+08 a.u.
MEL-JUSO,402.52 h,7.36e+07 a.u. and 3.99e+07 a.u. and 3.71e+07 a.u. and 4.09e+07 a.u. and 3.08e+07 a.u. and 4.03e+07 a.u.

# Series 4
# Target: Calcium/calmodulin-dependent protein kinase type II subunit alpha (CAMK2A, Homo sapiens, UniProt Q9UQM7)
# Sequence of UniProt Q9UQM7 (whole entry, looked up): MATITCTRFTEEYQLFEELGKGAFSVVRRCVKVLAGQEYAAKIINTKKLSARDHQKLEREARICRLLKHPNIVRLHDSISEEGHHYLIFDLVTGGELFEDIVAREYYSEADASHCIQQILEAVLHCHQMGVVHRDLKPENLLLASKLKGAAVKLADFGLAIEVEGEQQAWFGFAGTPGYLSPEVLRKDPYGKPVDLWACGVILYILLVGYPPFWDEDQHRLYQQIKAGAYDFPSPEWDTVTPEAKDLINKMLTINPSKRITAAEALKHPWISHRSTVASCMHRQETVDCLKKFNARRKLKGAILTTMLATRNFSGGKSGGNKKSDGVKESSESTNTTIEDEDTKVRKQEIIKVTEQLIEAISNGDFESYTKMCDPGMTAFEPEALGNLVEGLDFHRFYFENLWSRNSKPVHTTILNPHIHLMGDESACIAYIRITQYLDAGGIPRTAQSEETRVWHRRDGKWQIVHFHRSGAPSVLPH
# Effect on: enzyme activity
# Action: inhibitor
# Concentration: 10 µM
SMILES,inhibition
Cn1c(=O)c2[nH]c(Br)nc2n(C)c1=O,-2%
Cc1onc(-c2c(Cl)cccc2Cl)c1C(=O)N[C@@H]1C(=O)N2[C@@H]1SC(C)(C)[C@@H]2C(=O)O,-11%
COc1ccc(-c2nc3cc(C4=NNC(=O)CC4C)ccc3[nH]2)cc1 (stereo not shown),5%
CC(C)[C@H]1CC[C@H](C(=O)N[C@H](Cc2ccccc2)C(=O)O)CC1,5%
O=C1c2ccccc2C(=O)c2c(O)ccc(O)c21,-2%
CC(=O)Oc1ccccc1,-30%
CC(C)(O)CCc1c(O)cc(O)c2c(=O)c(O)c(-c3ccc(O)cc3)oc12,-8%
CN(C)CC(=O)O,-2%
CC1(C)CC[C@]2(C(=O)O[C@@H]3O[C@H](CO)[C@@H](O)[C@H](O)[C@H]3O)CC[C@]3(C)C(=CC[C@@H]4[C@@]5(C)CC[C@H](O[C@@H]6O[C@H](C(=O)O)[C@@H](O)[C@H](O)[C@H]6O)C(C)(C)[C@@H]5CC[C@]43C)[C@@H]2C1,-8%
Nc1ccncc1N,3%

# Repeated from above (series 3):
cell line,setting,spheroid area
A375,78 h,4.31e+07 a.u. and 4.22e+07 a.u. and 5.19e+07 a.u. and 6.15e+07 a.u. and 5.44e+07 a.u. and 5.82e+07 a.u.
A375,240 h,1.38e+08 a.u. and 1.18e+08 a.u. and 1.32e+08 a.u. and 1.6e+08 a.u. and 1.33e+08 a.u. and 1.36e+08 a.u.
